{"data": "Measurements from different studies", "note": "Compare with care: the assays were run in different laboratories. Numbers after ± are the reported error."}
{"SMILES": "O=C1NC2(CC2)COc2ncc(F)cc2[C@H]2COCCN2c2ccn3ncc1c3n2", "system": "Sprague-Dawley rat, male", "setting": "oral, 20 mg/kg/day, end of recovery, 4-week repeated-dose toxicity", "measurement": "body weight", "value": "482 ± 41.3 g"}
{"SMILES": "CC1(C)[C@H](NC(=O)/C(=N\\OC2(C(=O)O)CCCC2)c2csc(N)n2)C(=O)N1OS(=O)(=O)O", "target or system": "Salmonella enterica Typhi", "test": "agar dilution", "system": "susceptible", "measurement": "MIC", "value": "0.5 µg/mL"}
{"SMILES": "CN[C@@H]1[C@H](O)[C@H](NC)[C@H]2O[C@]3(O)[C@H](O[C@@H]2[C@H]1O)O[C@H](C)C[C@H]3NC(=O)Cc1ccc(Cl)cn1", "target or system": "Mycolicibacterium fortuitum", "test": "microbial growth", "system": "ATCC6841", "measurement": "MIC", "value": "50 µg/mL"}
{"SMILES": "Nc1ccccc1C(=O)OCC#CCOC(=O)c1ccccc1N", "target or system": "Lodderomyces parapsilosis", "test": "microbial growth, broth dilution", "system": "ATCC22019", "measurement": "MIC", "value": "2 µg/mL"}
{"SMILES": "C=CCO/N=C(\\C(=O)N[C@@H]1C(=O)N(OS(=O)(=O)O)C1(C)C)c1csc(N)n1", "target or system": "Salmonella enterica Typhi", "test": "agar dilution", "system": "susceptible", "measurement": "MIC", "value": "0.25 µg/mL"}
{"SMILES": "CN[C@@H]1[C@H](O)[C@H](NC)[C@H]2O[C@]3(O)[C@H](O[C@@H]2[C@H]1O)O[C@H](C)C[C@H]3NC(=O)CNC(C)(C)C", "target or system": "Burkholderia cepacia", "test": "microbial growth, broth dilution", "system": "ATCC25416", "measurement": "MIC", "value": "> 200 µg/mL"}
{"SMILES": "Cc1ccc(-c2nc3ccc(C)cn3c2CC(=O)NCc2ccc(N(C)C)cc2)cc1", "target or system": "Mycobacteroides chelonae", "test": "microbial growth", "setting": "72 h", "measurement": "MIC", "value": "> 50 µM"}
{"SMILES": "CC1(C)C(NC(=O)C(=NOC2(C(=O)O)CC2)c2csc(N)n2)C(=O)N1OS(=O)(=O)O (centres unmarked)", "target or system": "Salmonella enterica Typhi", "test": "agar dilution", "system": "susceptible", "measurement": "MIC", "value": "0.06 µg/mL"}
{"SMILES": "Cc1ccc2nc(C)c(CC(=O)NCc3ccc(N(C)C)cc3)n2c1", "target or system": "Mycobacteroides chelonae", "test": "microbial growth", "setting": "72 h", "measurement": "MIC", "value": "> 50 µM"}
{"SMILES": "CC1(C)[C@H](NC(=O)/C(=N\\OCc2c(Cl)cccc2Cl)c2nsc(N)n2)C(=O)N1OS(=O)(=O)O", "target or system": "Salmonella enterica Typhi", "test": "agar dilution", "system": "susceptible", "measurement": "MIC", "value": "4 µg/mL"}
{"SMILES": "CN[C@@H]1[C@H](O)[C@H](NC)[C@H]2O[C@]3(O)[C@H](O[C@@H]2[C@H]1O)O[C@H](C)C[C@H]3NC(=O)Cc1cscn1", "target or system": "Mycolicibacterium fortuitum", "test": "microbial growth", "system": "ATCC6841", "measurement": "MIC", "value": "50 µg/mL"}
{"SMILES": "Cc1ccc(CNC(=O)C(=O)c2c(C)nc3ccc(C)cn23)cc1", "target or system": "Mycobacteroides chelonae", "test": "microbial growth", "setting": "72 h", "measurement": "MIC", "value": "> 128 µM"}
{"SMILES": "CN[C@@H]1[C@H](O)[C@H](NC)[C@H]2O[C@]3(O)[C@H](O[C@@H]2[C@H]1O)O[C@H](C)C[C@H]3NC(=O)Cc1cc(Cl)ccn1", "target or system": "Burkholderia cepacia", "test": "microbial growth, broth dilution", "system": "ATCC25416", "measurement": "MIC", "value": "> 200 µg/mL"}
{"SMILES": "Cc1ccc2nc(C)c(C(=O)C(=O)N(C)C)n2c1", "target or system": "Mycobacteroides chelonae", "test": "microbial growth", "setting": "72 h", "measurement": "MIC", "value": "> 128 µM"}
{"note": "Repeated from above:"}
{"SMILES": "CC1(C)[C@H](NC(=O)/C(=N\\OCc2c(Cl)cccc2Cl)c2nsc(N)n2)C(=O)N1OS(=O)(=O)O", "target or system": "Salmonella enterica Typhi", "test": "agar dilution", "system": "susceptible", "measurement": "MIC", "value": "4 µg/mL"}
